Measured values gathered from unrelated publications.
± gives the spread as reported.

The tissue uptake of `CCCC[C@H](NC(=O)CCCCCCCNC(=O)CN1CCN(CC(=O)O)CCN(CC(=O)O)CC1)C(=O)N[C@H]1CC(=O)NCCCC[C@@H](C(N)=O)NC(=O)[C@H](Cc2c[nH]c3ccccc23)NC(=O)[C@H](CCCNC(=N)N)NC(=O)[C@@H](Cc2ccccc2)NC(=O)[C@H](Cc2c[nH]cn2)NC1=O` [copper-64 labelled] is reported as 0.1 ± 0.14 %ID/g (C57 mice, spleen; intravenous, 0.37 MBq, 24 h).
For `N=C(N)NCCC[C@@H]1NC(=O)[C@H](CCCCNC(=O)CC[C@H](NC(=O)CC[C@H](NC(=O)CN2CCN(CC(=O)O)CCN(CC(=O)O)CCN(CC(=O)O)CC2)C(=O)N[C@@H](CCC(=O)NCCCC[C@@H]2NC(=O)[C@@H](Cc3ccccc3)NC(=O)[C@H](CC(=O)O)NC(=O)CNC(=O)[C@H](CCCNC(=N)N)NC2=O)C(=O)NCCCC[C@@H]2NC(=O)[C@@H](Cc3ccccc3)NC(=O)[C@H](CC(=O)O)NC(=O)CNC(=O)[C@H](CCCNC(=N)N)NC2=O)C(=O)NCCCC[C@@H]2NC(=O)[C@@H](Cc3ccccc3)NC(=O)[C@H](CC(=O)O)NC(=O)CNC(=O)[C@H](CCCNC(=N)N)NC2=O)NC(=O)[C@@H](Cc2ccccc2)NC(=O)[C@H](CC(=O)O)NC(=O)CNC1=O` [indium-111 labelled], the tissue uptake was 0.9 ± 0.18 %ID/g (female athymic nu/nu mice, heart; intravenous, 4 h).
`CCCC[C@H](NC(=O)CNC(=O)CNC(=O)CN1CCN(CC(=O)O)CCN(CC(=O)O)CC1)C(=O)N[C@H]1CC(=O)NCCCC[C@@H](C(N)=O)NC(=O)[C@H](Cc2c[nH]c3ccccc23)NC(=O)[C@H](CCCNC(=N)N)NC(=O)[C@@H](Cc2ccccc2)NC(=O)[C@H](Cc2c[nH]cn2)NC1=O` [technetium-99m labelled] has a tissue uptake of 0.08 ± 0.07 %ID/g (C57 mouse, heart; iv, 0.037 MBq, 24 h).
For `CCCC[C@H](NC(=O)COCCOCCNC(=O)CN1CCN(CC(=O)O)CCN(CC(=O)O)CC1)C(=O)N[C@H]1CC(=O)NCCCC[C@@H](C(N)=O)NC(=O)[C@H](Cc2c[nH]c3ccccc23)NC(=O)[C@H](CCCNC(=N)N)NC(=O)[C@@H](Cc2ccccc2)NC(=O)[C@H](Cc2c[nH]cn2)NC1=O` [copper-64 labelled], the tissue uptake was 19.6 ± 1.48 %ID/g (C57 mice, tumor; intravenous, 0.37 MBq, 2 h).
`N=C(N)NCCC[C@@H]1NC(=O)[C@H](CCCCNC(=O)CNC(=O)CNC(=O)CNC(=O)CC[C@H](NC(=O)CNC(=O)CNC(=O)CNC(=O)CC[C@H](NC(=O)CN2CCN(CC(=O)O)CCN(CC(=O)O)CCN(CC(=O)O)CC2)C(=O)NCC(=O)NCC(=O)NCC(=O)N[C@@H](CCC(=O)NCC(=O)NCC(=O)NCC(=O)NCCCC[C@@H]2NC(=O)[C@@H](Cc3ccccc3)NC(=O)[C@H](CC(=O)O)NC(=O)CNC(=O)[C@H](CCCNC(=N)N)NC2=O)C(=O)NCC(=O)NCC(=O)NCC(=O)NCCCC[C@@H]2NC(=O)[C@@H](Cc3ccccc3)NC(=O)[C@H](CC(=O)O)NC(=O)CNC(=O)[C@H](CCCNC(=N)N)NC2=O)C(=O)NCC(=O)NCC(=O)NCC(=O)NCCCC[C@@H]2NC(=O)[C@@H](Cc3ccccc3)NC(=O)[C@H](CC(=O)O)NC(=O)CNC(=O)[C@H](CCCNC(=N)N)NC2=O)NC(=O)[C@@H](Cc2ccccc2)NC(=O)[C@H](CC(=O)O)NC(=O)CNC1=O` [indium-111 labelled] has a tissue uptake of 12.7 ± 1.25 %ID/g (female athymic nu/nu mice, U87MG tumour; intravenous, 111 kBq, 0.5 h).
`CC(C)C[C@H](NC(=O)[C@@H](CCCCNC(=O)CCCCCNC(=O)CN1CCN(CC(=O)O)CCN(CC(=O)O)CCN(CC(=O)O)CC1)NC(=O)[C@H](Cc1ccc(O)cc1)NC(=O)[C@H](CO)NC(=O)[C@H](Cc1c[nH]c2ccccc12)NC(=O)[C@H](Cc1cnc[nH]1)NC(=O)[C@@H]1CCC(=O)N1)C(=O)N[C@@H](CCCNC(=N)N)C(=O)N1CCC[C@H]1C(=O)NCC(N)=O` [indium-111 labelled] gave a tissue uptake of 0.22 ± 0.05 %ID/g (female athymic nude mouse, skin; intravenous, 0.037 MBq, 24 h).
`CCCC[C@H](NC(=O)CNC(=O)CNC(=O)CN1CCN(CC(=O)O)CCN(CC(=O)O)CCN(CC(=O)O)CC1)C(=O)N[C@H]1CC(=O)NCCCC[C@@H](C(N)=O)NC(=O)[C@H](Cc2c[nH]c3ccccc23)NC(=O)[C@H](CCCNC(=N)N)NC(=O)[C@@H](Cc2ccccc2)NC(=O)[C@H](Cc2c[nH]cn2)NC1=O` [lutetium-177 labelled] gave a tissue uptake of 0.09 ± 0.03 %ID/g (C57 mouse, female, brain; intravenous, 0.037 MBq, 4 h).
`CC(C)C[C@H](NC(=O)[C@H](Cc1ccc(O)cc1)NC(=O)[C@@H](CCCNC(=N)N)NC(=O)[C@@H](CO)NC(=O)[C@H](Cc1ccccc1)NC(=O)[C@H](CC1CCCCC1)NC(=O)[C@H](CC(=O)O)NC(=O)CN1CCCN2CCN(CCCN(CC(=O)O)CC2)CC1)C(=O)N[C@@H](Cc1c[nH]c2ccccc12)C(=O)N[C@@H](CO)C(=O)O` [copper-64 labelled] gave a tissue uptake of 15 ± 1 %ID/g (female NMRI nude mice, kidney; 1 h p.i.).

A few entries again:
For `CCCC[C@H](NC(=O)COCCOCCNC(=O)CN1CCN(CC(=O)O)CCN(CC(=O)O)CC1)C(=O)N[C@H]1CC(=O)NCCCC[C@@H](C(N)=O)NC(=O)[C@H](Cc2c[nH]c3ccccc23)NC(=O)[C@H](CCCNC(=N)N)NC(=O)[C@@H](Cc2ccccc2)NC(=O)[C@H](Cc2c[nH]cn2)NC1=O` [copper-64 labelled], the tissue uptake was 19.6 ± 1.48 %ID/g (C57 mice, tumor; intravenous, 0.37 MBq, 2 h).
